Measured values from different studies.
Lines come from different studies, so protocols differ. Several values in a cell are separate wells, animals, samples, runs or records.
HTR1F: 5-hydroxytryptamine receptor 1F (HTR1F, Homo sapiens, UniProt P30939)
MTNR1B: Melatonin receptor type 1B (MTNR1B, Homo sapiens, UniProt P49286)
AVPR2: Vasopressin V2 receptor (AVPR2, Homo sapiens, UniProt P30518)
GPR84: G-protein coupled receptor 84 (GPR84, Homo sapiens, UniProt Q9NQS5)
MTNR1A: Melatonin receptor type 1A (MTNR1A, Homo sapiens, UniProt P48039)

| SMILES | target | assay | conditions | quantity | value |
| --- | --- | --- | --- | --- | --- |
| CC(=O)N[C@H](CCCNC(=N)N)C(=O)N[C@H]1CSSC[C@@H](C(N)=O)NC(=O)[C@H](Cc2c[nH]c3ccccc23)NC(=O)[C@H](CCCNC(=N)N)NC(=O)[C@@H](Cc2ccccc2)NC(=O)[C@H](Cc2c[nH]cn2)NC(=O)[C@H](CCC(=O)O)NC1=O | Melanocortin receptor 3 (MC3R, Homo sapiens, UniProt P41968) | cAMP, agonist | – | EC50 | 4.2 nM |
| C=CC(=O)N1CCC(COCC(=O)N2CCN(c3nc(-c4cnc(N)nc4C(F)F)nc(N4CCOC[C@@H]4C)n3)CC2)CC1 | Serine/threonine-protein kinase tousled-like 2 (TLK2, Homo sapiens, UniProt Q86UE8) | binding, competition with immobilised ligand | 1 µM | remaining binding | 100% |
| CN1CCc2cc(Cl)c(O)cc2[C@@H](c2ccccc2)C1 | HTR1F | G protein activation, agonist, BRET | – | EC50 | 3350 nM |
| COc1ccc2[nH]cc(CCNC(C)=O)c2c1I | MTNR1B | β-arrestin recruitment, agonist | – | EC50 | 52.5 nM |
| CCCN1C[C@H](CSC)C[C@@H]2c3cccc4[nH]cc(c34)C[C@H]21 | HTR1F | G protein activation, agonist, BRET | – | EC50 | 807 nM |
| CC1=NN(/C(=N/c2nnc(C)s2)Nc2ccc(C)c(C)c2)C(c2ccc(-c3ccccc3)cc2)S1 (stereo not drawn) | AVPR2 | cAMP, positive allosteric modulator | – | EC50 | > 50000 nM |
| COc1ccc2ncn(CCNC(C)=O)c2c1 | MTNR1B | β-arrestin recruitment, agonist | – | EC50 | 871 nM |
| CC1=NN(/C(=N\c2ccc(Cl)cc2)Nc2nnc(C)s2)C(c2ccc(C)cc2)S1 (stereo not drawn) | AVPR2 | cAMP, positive allosteric modulator | – | EC50 | 22200 nM |
| CN(C)c1ncnc2c1ncn2[C@@H]1O[C@H](CO)[C@@H](O)[C@H]1O | Adenosine receptor A3 (ADORA3, Homo sapiens, UniProt P0DMS8, I253F) | G protein activation, agonist | – | EC50 | 13000 nM |
| O=C(CCCCCN1CCN(c2ccccc2-c2ccccc2)CC1)NC1CCCc2ccccc21 (stereo not drawn) | HTR1F | G protein activation, agonist, BRET | – | EC50 | 315 nM |
| CC1=NN(/C(=N\c2cccc(C)c2)Nc2nnc(C)s2)C(c2ccc(C)cc2)S1 (stereo not drawn) | AVPR2 | cAMP, positive allosteric modulator | – | EC50 | 30800 nM |
| O=c1cc(NCCc2ccccc2F)[nH]c(=O)[nH]1 | GPR84 | cAMP, agonist | – | EC50 | 99.5 nM |
| COc1cc(-c2cncc3c2CN(C)Cc2cc(N4CCNCC4)ccc2-3)cc(OC)c1OC | AP2-associated protein kinase 1 (AAK1, Homo sapiens, UniProt Q2M2I8) | enzyme activity, inhibitor | 1 µM | remaining activity | 95% |
| CC1=NN(/C(=N\c2ccccn2)Nc2nnc(C)s2)C(c2ccc(C)cc2)S1 (stereo not drawn) | AVPR2 | cAMP, positive allosteric modulator | – | EC50 | > 50000 nM |
| C=CCN1C[C@H](C(=O)N(CCCN(C)C)C(=O)NCC)C[C@@H]2c3cccc4[nH]cc(c34)C[C@H]21 | HTR1F | G protein activation, agonist, BRET | – | EC50 | 387 nM |
| COC(=O)c1sc(N(C)Cc2cnccc2C)nc1Cl | MTNR1A | cAMP, agonist, luciferase | – | EC50 | 23.1 nM |
| COc1ccccc1N1CCN(CCCCN2C(=O)c3ccccc3C2=O)CC1 | HTR1F | G protein activation, agonist, BRET | – | EC50 | 413 nM |
| COc1cc(C)nc(CN2CCOc3ccc(OC)cc32)c1 | MTNR1A | cAMP, agonist, luciferase | – | EC50 | 159 nM |
| Cc1cc([C@@H](C)Nc2ccccc2C(=O)O)c2nc(N3CCC(F)(F)CC3)c(C#N)c(=O)n2c1 | Cyclin-dependent kinase 3 (CDK3, Homo sapiens, UniProt Q00526) | binding, competition with immobilised ligand | 10 µM | remaining binding | 83% |
| N#C[C@@]12C[C@@H]1[C@@H](n1cnc3c(Nc4ccccc4)nc(I)nc31)[C@H](O)[C@@H]2O | Sodium-dependent dopamine transporter (SLC6A3, Homo sapiens, UniProt Q01959) | ligand displacement, radioligand | – | EC50 | 2200 nM |
| COC(=O)c1cccc(N(C)CC2CCS(=O)(=O)C2)n1 (stereo not drawn) | MTNR1A | cAMP, agonist, luciferase | – | EC50 | 30.6 nM |
| CCC1=NN(/C(=N/c2nnc(CC)s2)Nc2ccc(C)c(C)c2)C(c2cc(F)c(F)c(F)c2)S1 (stereo not drawn) | AVPR2 | cAMP, positive allosteric modulator | – | EC50 | > 50000 nM |
| O=C(/C=C/c1ccccc1)/C=C/c1ccccc1O | Sterol carrier protein 2 (Aedes aegypti, UniProt Q86PR3) | ligand displacement, fluorescence | – | EC50 | 2020 nM |
| C[C@]12CCC(=O)C=C1CC[C@@H]1[C@@H]2[C@@H](O)C[C@@]2(C)[C@H]1CC[C@]2(O)C(=O)CO | Mineralocorticoid receptor (NR3C2, Homo sapiens, UniProt P08235) | reporter gene, agonist, luciferase | – | EC50 | 19.4 nM and ~20 nM and 20 nM |

| SMILES | target | assay | conditions | quantity | value |
| --- | --- | --- | --- | --- | --- |
| [Ca] | KCNN4/CALM1 (Homo sapiens, UniProt O15554+P0DP23) | ion current, agonist, patch clamp | – | EC50 | 430 nM |
| Oc1cc(NCCc2ccccc2)nc(O)n1 | GPR84 | cAMP, agonist | – | EC50 | 200 nM |
| NC1=NCC2c3ccccc3Cc3ccccc3N12 (stereo not drawn) | HTR1F | G protein activation, agonist, BRET | – | EC50 | 705 nM |
| COc1ccc(CNc2cccnc2C)cc1 | MTNR1A | cAMP, agonist, luciferase | – | EC50 | 1630 nM |
| CCCCCCCCNc1[nH]c(=O)[nH]c(=O)c1N=O | GPR84 | cAMP, agonist | – | EC50 | 603 nM |
| Cc1ccc(C2=CCC(C)(C)c3cc(C(/C=C/c4ccc(C(=O)O)cc4)=N/O)ccc32)cc1 | Retinoic acid receptor alpha (RARA, Homo sapiens, UniProt P10276) | reporter gene, antagonist, luciferase | – | EC50 | > 5000 nM |
| Cc1cc(C(C)(C)C)c(O)c(C)c1CC1=NCCN1 | HTR1F | G protein activation, agonist, BRET | – | EC50 | 11.3 nM |
| Clc1ccccc1CNc1cccc(-c2nnc[nH]2)c1 | MTNR1A | cAMP, agonist, luciferase | – | EC50 | 1260 nM |
| CC1=NN(/C(=N/c2nnc(C)s2)Nc2ccc(C)c(C)c2)C(c2ccc(-c3cccc(C(F)(F)F)c3)cc2)S1 (stereo not drawn) | AVPR2 | cAMP, positive allosteric modulator | – | EC50 | > 50000 nM |
| CC(C)=CCNc1ncnc2c1ncn2[C@@H]1O[C@H](CO)[C@@H](O)[C@H]1O | Adenosine receptor A1 (ADORA1, Homo sapiens, UniProt P30542) | G protein activation, agonist | – | EC50 | 900 nM |
| CC(C)C[C@H](NC(=O)[C@@H](N)[C@@H](C)O)C(=O)N[C@@H](CCC(N)=O)C(=O)N1CCC[C@H]1C(=O)N1CCC[C@H]1C(=O)N[C@@H](C)C(=O)N[C@@H](CO)C(=O)N[C@@H](CO)C(=O)N[C@@H](CCCNC(=N)N)C(=O)N[C@H](CCCNC(=N)N)C(=O)N[C@@H](CCCNC(=N)N)C(=O)N[C@@H](Cc1c[nH]cn1)C(=O)N[C@@H](Cc1ccccc1)C(=O)N[C@@H](Cc1c[nH]cn1)C(=O)N[C@@H](Cc1c[nH]cn1)C(=O)N[C@@H](C)C(=O)N[C@@H](CC(C)C)C(=O)N1CCC[C@H]1C(=O)N1CCC[C@H]1C(=O)N[C@H](C)C(=O)N[C@@H](CCCNC(=N)N)C(=O)O | C3a anaphylatoxin chemotactic receptor (C3AR1, Homo sapiens, UniProt Q16581) | G protein activation, agonist, BRET | – | EC50 | 7.15 nM |
| COc1ccc2c(c1)N(Cc1ccc3c(c1)nnn3C)CCO2 | MTNR1A | cAMP, agonist, luciferase | – | EC50 | 8020 nM |
| COc1cc2c(CCNC(C)=O)c[nH]c2cc1I | MTNR1B | cAMP, agonist, TR-FRET | – | EC50 | 6.61 nM |
| CCCCC(=O)Nc1ccc(-c2ccc3ncn(CCC)c(=O)c3c2)cn1 | Serine/threonine-protein kinase VRK2 (VRK2, Homo sapiens, UniProt Q86Y07) | binding, competition with immobilised ligand | 0.5 µM | remaining binding | 100% |
| COCC(CNC(C)=O)c1cccc2ccc(OC)cc12 (stereo not drawn) | MTNR1B | cAMP, agonist, TR-FRET | – | EC50 | 21.4 nM |
| c1cc(NCc2ccccc2C2CC2)cc(-c2nnc[nH]2)c1 | MTNR1A | cAMP, agonist, luciferase | – | EC50 | 3160 nM |
| CCc1ccc2scc(CCNC(C)=O)c2c1 | MTNR1B | GTPγS binding, agonist, radiometric | cell membranes | EC50 | 13.8 nM |
| CC1=NN(/C(=N/c2nnc(C)s2)Nc2ccc(C)c(C)c2)C(c2ccc(-c3ccc(C(F)(F)F)cc3)cc2)S1 (stereo not drawn) | AVPR2 | cAMP, positive allosteric modulator | – | EC50 | 20100 nM |
| COc1cc(I)c2[nH]cc(CCNC(C)=O)c2c1 | MTNR1A | cAMP, agonist, TR-FRET | – | EC50 | 110 nM |
| CNc1ncc2c(/C=C/C(=O)N3CCC(OC)CC3)nn(Cc3cccc(C(F)(F)F)c3)c2n1 | Homeodomain-interacting protein kinase 4 (HIPK4, Homo sapiens, UniProt Q8NE63) | enzyme activity, inhibitor, radiometric | 1 µM | remaining activity | 108% |
| COc1ccc(CNc2cncc(C)c2)cc1 | MTNR1A | cAMP, agonist, luciferase | – | EC50 | 2660 nM |
| CCCCC/C=C\C/C=C\C/C=C\Cc1ccccc1CCCC(=O)OC(CO)CO | Cannabinoid receptor 2 (CNR2, Homo sapiens, UniProt P34972) | β-arrestin recruitment, agonist | – | EC50 | 1940 nM |
| O=S1(=O)c2cccc3cccc(c23)N1CCCN1CCN(c2ccc(F)cc2)CC1 | HTR1F | G protein activation, agonist, BRET | – | EC50 | 394 nM |
| O=C(NCCc1cccc2ccccc12)C1CCC1 | MTNR1B | GTPγS binding, agonist, radiometric | cell membranes | EC50 | 45.7 nM |

Repeated from above:
| SMILES | target | assay | conditions | quantity | value |
| --- | --- | --- | --- | --- | --- |
| CC1=NN(/C(=N\c2ccccn2)Nc2nnc(C)s2)C(c2ccc(C)cc2)S1 (stereo not drawn) | AVPR2 | cAMP, positive allosteric modulator | – | EC50 | > 50000 nM |
| COc1ccc2c(c1)N(Cc1ccc3c(c1)nnn3C)CCO2 | MTNR1A | cAMP, agonist, luciferase | – | EC50 | 8020 nM |
| COC(=O)c1sc(N(C)Cc2cnccc2C)nc1Cl | MTNR1A | cAMP, agonist, luciferase | – | EC50 | 23.1 nM |
